Results collected from several papers.
MKNK2: MAP kinase-interacting serine/threonine-protein kinase 2 (MKNK2, Homo sapiens, UniProt Q9HBH9)
UniProt Q9HBH9, sequence (whole entry, looked up): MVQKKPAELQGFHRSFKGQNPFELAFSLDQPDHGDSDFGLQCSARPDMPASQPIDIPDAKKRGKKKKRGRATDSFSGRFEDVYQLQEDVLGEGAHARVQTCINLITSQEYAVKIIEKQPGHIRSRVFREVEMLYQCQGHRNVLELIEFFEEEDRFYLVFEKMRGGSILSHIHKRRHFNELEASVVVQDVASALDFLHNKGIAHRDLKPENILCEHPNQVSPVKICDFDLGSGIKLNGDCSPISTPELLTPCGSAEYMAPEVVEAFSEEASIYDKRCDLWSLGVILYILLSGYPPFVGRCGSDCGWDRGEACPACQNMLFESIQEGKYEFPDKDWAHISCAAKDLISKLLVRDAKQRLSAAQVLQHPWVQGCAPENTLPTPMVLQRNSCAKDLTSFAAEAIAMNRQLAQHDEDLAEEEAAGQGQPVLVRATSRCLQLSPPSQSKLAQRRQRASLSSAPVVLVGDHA
NEK6: Serine/threonine-protein kinase Nek6 (NEK6, Homo sapiens, UniProt Q9HC98)
UniProt Q9HC98, sequence (whole entry, looked up): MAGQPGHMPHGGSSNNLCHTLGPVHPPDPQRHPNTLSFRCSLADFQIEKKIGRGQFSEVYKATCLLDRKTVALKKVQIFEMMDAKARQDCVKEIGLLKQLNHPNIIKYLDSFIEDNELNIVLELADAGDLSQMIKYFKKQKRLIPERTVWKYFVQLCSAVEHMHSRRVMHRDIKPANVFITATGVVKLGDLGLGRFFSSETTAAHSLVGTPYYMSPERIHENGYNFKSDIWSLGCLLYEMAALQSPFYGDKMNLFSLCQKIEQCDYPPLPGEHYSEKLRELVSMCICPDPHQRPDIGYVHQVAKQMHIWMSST
UniProt O43293, sequence (whole entry, looked up): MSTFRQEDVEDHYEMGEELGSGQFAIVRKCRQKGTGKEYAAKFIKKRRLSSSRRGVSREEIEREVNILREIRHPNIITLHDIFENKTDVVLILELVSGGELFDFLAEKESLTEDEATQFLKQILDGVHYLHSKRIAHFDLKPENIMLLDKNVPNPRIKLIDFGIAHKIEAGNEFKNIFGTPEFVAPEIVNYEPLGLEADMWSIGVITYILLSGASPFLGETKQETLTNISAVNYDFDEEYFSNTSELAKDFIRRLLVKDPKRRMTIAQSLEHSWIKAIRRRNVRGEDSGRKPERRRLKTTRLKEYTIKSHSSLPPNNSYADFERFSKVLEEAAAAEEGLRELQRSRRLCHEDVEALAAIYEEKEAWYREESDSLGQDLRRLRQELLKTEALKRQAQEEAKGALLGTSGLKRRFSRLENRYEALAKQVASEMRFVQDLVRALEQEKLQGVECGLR
UniProt P06797, sequence (whole entry, looked up): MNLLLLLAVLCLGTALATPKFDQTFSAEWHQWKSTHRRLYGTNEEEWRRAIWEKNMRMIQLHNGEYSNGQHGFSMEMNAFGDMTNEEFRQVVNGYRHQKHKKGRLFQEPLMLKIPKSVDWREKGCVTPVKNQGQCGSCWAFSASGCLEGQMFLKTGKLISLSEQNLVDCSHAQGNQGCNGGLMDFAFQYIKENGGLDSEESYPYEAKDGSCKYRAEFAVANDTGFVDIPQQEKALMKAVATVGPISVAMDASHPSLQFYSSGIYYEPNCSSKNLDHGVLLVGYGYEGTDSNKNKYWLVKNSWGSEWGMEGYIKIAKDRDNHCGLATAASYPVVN
UniProt P78362, sequence (whole entry, looked up): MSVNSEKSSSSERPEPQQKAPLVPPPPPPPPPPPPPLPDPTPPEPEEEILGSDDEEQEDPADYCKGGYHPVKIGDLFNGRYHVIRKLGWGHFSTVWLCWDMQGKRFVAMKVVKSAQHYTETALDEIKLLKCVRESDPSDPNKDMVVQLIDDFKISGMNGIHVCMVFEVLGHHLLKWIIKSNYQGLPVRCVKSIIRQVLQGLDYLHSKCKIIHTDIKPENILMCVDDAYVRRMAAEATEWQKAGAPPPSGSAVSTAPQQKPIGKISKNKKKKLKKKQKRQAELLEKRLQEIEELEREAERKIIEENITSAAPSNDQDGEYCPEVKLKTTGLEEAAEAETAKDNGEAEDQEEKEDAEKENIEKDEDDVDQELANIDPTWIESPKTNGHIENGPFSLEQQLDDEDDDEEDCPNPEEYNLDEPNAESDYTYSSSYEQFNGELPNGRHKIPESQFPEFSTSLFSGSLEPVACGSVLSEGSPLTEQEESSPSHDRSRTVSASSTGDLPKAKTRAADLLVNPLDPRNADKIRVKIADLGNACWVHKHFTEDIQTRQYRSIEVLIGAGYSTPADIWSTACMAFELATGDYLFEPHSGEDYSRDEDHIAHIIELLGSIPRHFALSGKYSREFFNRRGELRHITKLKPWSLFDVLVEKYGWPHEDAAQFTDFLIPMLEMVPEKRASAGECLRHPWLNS

SMILES | target | assay | setting | scale | remaining activity [%]
O=C(O)c1ccc(Nc2ncc3c(n2)-c2ccc(Cl)cc2C(c2c(F)cccc2F)=NC3)cc1 | NEK6(h) | kinase activity | 1 µM |  | 92
COc1cc(F)ccc1-c1ncnc(Nc2cccc(C[S@](C)(=N)=O)c2)n1 | MKNK2 | kinase activity | 10 µM, added: 10 µM ATP |  | 83
COc1cc(Nc2ncc3c(n2)-c2ccc(Cl)cc2C(c2c(F)cccc2OC)=NC3)ccc1C(=O)O | MAPK14 | kinase activity | 1 µM |  | 109
CNc1ncc2c(/C=C/C(=O)N3CCC(OC)CC3)nn(Cc3cccc(C(F)(F)F)c3)c2n1 | DAPK3 (Homo sapiens, UniProt O43293) | kinase activity, inhibitor | 1 µM | relative to: untreated control | 97
O=C1NC(=O)/C(=C/c2ccc(-c3ccc(F)cc3O)o2)S1 | NEK6 | enzyme activity | 10 µM |  | 94
O=C(NC1CCC1)c1ccc2nc(-c3cccc(NS(=O)(=O)NCCN4CCCCC4)c3)cn2c1 | SRPK2 (Homo sapiens, UniProt P78362) | enzyme activity | 10 µM |  | 98
Cc1cccc(C)c1C(=O)OCC(=O)[C@H](CCCCN)NC(=O)[C@H](CCCNC(=N)N)NC(=O)OCc1ccccc1 | Procathepsin L (Mus musculus, UniProt P06797) | inhibitor | 0.1 µM, added: AMC fluorogenic substrate | relative to: untreated | 95
COc1cc(-c2cncc3c2CN(C)Cc2cc(N4CCNCC4)ccc2-3)cc(OC)c1OC | NEK6 | kinase activity | 1 µM, human enzyme, added: ATP 10 µM | relative to: DMSO control | 109
Cc1cc(Nc2cc(N3CCN(C)CC3)nc(Sc3ccc(NC(=O)C4CC4)cc3)n2)[nH]n1 | MKNK2 | kinase activity, KinaseProfiler | 0.03 µM, species human | relative to: control | 88
